Measurements of several laboratories.
Lines come from different studies, so protocols differ. Numbers after ± are the reported error.
Organism: Acinetobacter baumannii

| SMILES | assay | system | conditions | MIC |
| --- | --- | --- | --- | --- |
| CCCCCCCCCCCCCC(=O)N[C@H](CCN)C(=O)N[C@H](C(=O)N[C@H]1CCNC(=O)[C@H](CC(=O)O)NC(=O)[C@H](C(C)C)NC(=O)[C@@H](Cc2ccc(O)cc2)NC(=O)[C@H](CCN)NC(=O)[C@H](CC(C)C)NC(=O)[C@@H](Cc2ccccc2)NC(=O)[C@H](CCN)NC(=O)[C@H](CC(C)C)NC1=O)[C@@H](C)O | broth microdilution | BNCC 194496 |  | 4 µg/mL |
| CC(C)C[C@H](NC(=O)[C@H](Cc1ccc(O)cc1)NC(=O)[C@@H]1CCCN1C(=O)[C@H](CCCNC(=N)N)NC(=O)[C@@H]1CCCN1C(=O)[C@H](CCCCN)NC(=O)[C@H](CC(=O)O)NC(=O)[C@@H]1CCCN1C(=O)[C@H](CCCNC(=N)N)NC(=O)C1(N)CCCCC1)C(=O)N1CCC[C@H]1C(=O)N[C@@H](CCCNC(=N)N)C(=O)N1CCC[C@H]1C(=O)N[C@@H](CCCNC(=N)N)C(=O)N1CCC[C@H]1C(=O)N1CCC[C@H]1C(=O)N[C@@H](CCCNC(=N)N)C(=O)N1CCC[C@H]1C(=O)N[C@H](C(=O)N[C@@H](CCCNC(=N)N)C(=O)N[C@@H](CSc1c(F)c(F)c(-c2c(F)c(F)c(SC[C@H](NC(=O)[C@H](CCCNC(=N)N)NC(=O)[C@@H](NC(=O)[C@@H]3CCCN3C(=O)[C@H](CCCNC(=N)N)NC(=O)[C@@H]3CCCN3C(=O)[C@@H]3CCCN3C(=O)[C@H](CCCNC(=N)N)NC(=O)[C@@H]3CCCN3C(=O)[C@H](CCCNC(=N)N)NC(=O)[C@@H]3CCCN3C(=O)[C@H](CC(C)C)NC(=O)[C@H](Cc3ccc(O)cc3)NC(=O)[C@@H]3CCCN3C(=O)[C@H](CCCNC(=N)N)NC(=O)[C@@H]3CCCN3C(=O)[C@H](CCCCN)NC(=O)[C@H](CC(=O)O)NC(=O)[C@@H]3CCCN3C(=O)[C@H](CCCNC(=N)N)NC(=O)C3(N)CCCCC3)C(C)C)C(=O)NN)c(F)c2F)c(F)c1F)C(=O)NN)C(C)C | bacterial growth | ATCC 19606, 100% Mueller-Hinton broth | 90 min, 37 °C, strain ATCC 19606 | 4.9 ± 1.3 µg/mL |
| CC[C@H](C)[C@H](NC(=O)[C@H](CCCCN)NC(=O)[C@H](CC(N)=O)NC(=O)[C@H](Cc1c[nH]c2ccccc12)NC(=O)[C@H](Cc1ccccc1)NC(=O)[C@H](CCCCN)NC(=O)[C@H](CCCCNC(=N)N)NC(=O)[C@H](CC(C)C)NC(=O)[C@H](Cc1c[nH]c2ccccc12)NC(=O)[C@H](CCCCN)NC(=O)[C@H](CCCCNC(=N)N)NC(=O)[C@H](CC(C)C)NC(=O)CNC(C)=O)C(=O)N[C@@H](CCCCN)C(=O)N[C@@H](CCCCNC(=N)N)C(N)=O | bacterial growth, broth microdilution | multidrug-resistant |  | 3.12 µM |
| CC[C@H](C)[C@H](NC(=O)[C@H](C)NC(=O)[C@@H](NC(=O)[C@H](CC(=O)O)NC(=O)[C@H](CCCCN)NC(=O)[C@H](CO)NC(=O)[C@@H](NC(=O)[C@H](CC(N)=O)NC(=O)[C@H](C)NC(=O)[C@@H](NC(=O)[C@H](CCC(=O)O)NC(=O)[C@H](CCCCN)NC(=O)[C@@H](NC(=O)[C@@H](NC(=O)[C@H](Cc1c[nH]cn1)NC(=O)[C@H](CCCCN)NC(=O)[C@@H](NC(=O)[C@H](CCCCN)NC(=O)[C@H](CCCCN)NC(=O)[C@@H](NC(=O)[C@H](CC(C)C)NC(=O)[C@H](CCCCN)NC(=O)[C@H](CC(N)=O)NC(=O)[C@H](Cc1ccccc1)NC(=O)[C@H](CCCNC(=N)N)NC(=O)[C@H](CCCCN)NC(=O)[C@H](CCCNC(=N)N)NC(=O)[C@H](Cc1ccccc1)NC(=O)CN)C(C)C)C(C)C)[C@@H](C)O)[C@@H](C)CC)[C@@H](C)O)C(C)C)C(C)C)C(=O)N[C@H](C(=O)N[C@@H](C)C(=O)NCC(=O)N[C@@H](CO)C(=O)NCC(=O)N[C@H](C(=O)N[C@@H](C)C(=O)N[C@H](C(=O)NCC(=O)N[C@@H](C)C(=O)N[C@@H](C)C(=O)N[C@@H](CCSC)C(N)=O)C(C)C)C(C)C)C(C)C |  | isolate RKI 19/09, CAMHB |  | 4 µg/mL |
| CC(C)[C@@H]1NC(=O)[C@@H]2CCCN2C(=O)[C@@H](C)NC(=O)[C@H](CO)NC(=O)[C@H](C)NC(=O)[C@H](C(C)(C)C)NC(=O)[C@H](CCO)NC(=O)[C@H](Cc2c[nH]c3ccccc23)NC(=O)[C@H](CCO)NC(=O)[C@@H](CCN)NC(=O)[C@H](CCC(N)=O)NC(=O)[C@H](CCN)NC(=O)[C@H](Cc2ccc(O)cc2)NC(=O)[C@H]([C@@H](C)O)NC1=O | broth microdilution | ATCC 17978, CAMHB with polysorbate-80 | 16 h | > 64 µg/mL |
| CCN1CCC(CCNCc2cc3ccccc3nc2SCc2ccccc2)CC1 | microbial growth, broth dilution |  |  | 64 µg/mL |
| CCn1c(-c2ccc(-c3ccc(F)cc3)cc2)c(-c2ccc(-c3ccc(F)cc3)cc2)n(CC)c1=[Se+][Au-][P+](c1ccccc1)(c1ccccc1)c1ccccc1.[Cl-] | broth microdilution | carbapenem-resistant | 24 h | > 40 µM |
| CC(C)C[C@@H]1NC(=O)[C@@H](Cc2ccccc2)NC(=O)[C@H](CCN)NC(=O)[C@@H](NC(=O)[C@H](CN)NC(=O)[C@@H](NC(=O)CC(CN)C2CCCCC2)[C@@H](C)O)CCNC(=O)[C@H]([C@@H](C)O)NC(=O)[C@H](CCN)NC(=O)[C@H](CCN)NC1=O (stereo partly shown) | broth microdilution | NCTC 13424 OXA-23 producer, cation-adjusted Mueller-Hinton broth |  | 0.25 µg/mL |
| CC[C@@H](C)[C@@H](NC(=O)[C@@H](C)NC(=O)[C@@H](CCCCN)NC(=O)[C@@H](CC(C)C)NC(=O)[C@@H](C)NC(=O)[C@H](NC(=O)[C@@H](Cc1c[nH]cn1)NC(=O)[C@@H](CC(C)C)NC(=O)[C@H](NC(=O)[C@H](NC(=O)[C@@H](CCCCN)NC(=O)[C@@H](CCCCN)NC(=O)[C@@H](C)NC(=O)[C@@H](CO)NC(=O)[C@@H](CCCCN)NC(=O)[C@@H](Cc1ccccc1)NC(=O)[C@H](NC(=O)[C@@H](CCCCN)NC(=O)[C@@H](CC(C)C)NC(=O)[C@@H](Cc1ccccc1)NC(=O)[C@@H](CO)NC(=O)[C@@H](CCCCN)NC(=O)[C@@H](Cc1c[nH]c2ccccc12)NC(=O)[C@@H](CCCCN)NC(C)=O)[C@H](C)O)[C@H](C)O)C(C)C)[C@H](C)O)C(=O)N[C@H](CO)C(=O)N[C@H](CO)C(N)=O |  | 884, Mueller-Hinton broth | 24 h, 37 °C | 1.5 µM |
| CC[P+](CC)(CC)[Au-][S][C@@H]1O[C@H](COC(C)=O)[C@@H](OC(C)=O)[C@H](OC(C)=O)[C@H]1NC(C)=O |  | NCTC 13420 |  | 24 µM |

For quick reference, copied from above:
| SMILES | assay | system | conditions | MIC |
| --- | --- | --- | --- | --- |
| CC(C)C[C@@H]1NC(=O)[C@@H](Cc2ccccc2)NC(=O)[C@H](CCN)NC(=O)[C@@H](NC(=O)[C@H](CN)NC(=O)[C@@H](NC(=O)CC(CN)C2CCCCC2)[C@@H](C)O)CCNC(=O)[C@H]([C@@H](C)O)NC(=O)[C@H](CCN)NC(=O)[C@H](CCN)NC1=O (stereo partly shown) | broth microdilution | NCTC 13424 OXA-23 producer, cation-adjusted Mueller-Hinton broth |  | 0.25 µg/mL |
